Assay results of several laboratories.
Protocols differ between the studies behind these lines. ± gives the spread as reported.
Route: oral

O=C(NC[C@H](O)CO)c1ccncc1Nc1ccc(I)cc1F  AUC(0-t) (patients, plasma; 60 mg single dose, day 8, median, alone): 1.26 µg·h/mL
NC(=O)c1cnc2[nH]ccc2c1N[C@@H]1[C@@H]2CC3C[C@H]1C[C@@](O)(C3)C2  AUC(0-t) (healthy Caucasian men, plasma; 20 mg, single dose fasted): 0.191 µg·h/mL
CNC(=O)c1ccc(-c2cnc3ncc(Cc4ccc5ncccc5c4)n3n2)cc1F  AUC(0-t) (mild hepatic impairment; 200 mg, geometric mean): 4.73 µg·h/mL
CC1Cc2ccccc2N1NC(=O)c1ccc(Cl)c(S(N)(=O)=O)c1 (centres unmarked)  AUC(0-t) (healthy Chinese volunteers, whole blood; 1.25 mg, up to 48 h, fasting, with: perindopril tert-butylamine 4 mg): 0.882 ± 0.127 µg·h/mL
Cc1ccc(NC(=O)c2ccc(CN3CCN(C)CC3)cc2)cc1Nc1nccc(-c2cncc(-c3oncc3C)c2)n1  AUC(0-t) (Parkinson's disease patients, plasma; 100 mg once daily, day 1, 7-day dosing, mean): 50.2 µg·h/mL
CC(=O)c1nn(CC(=O)N2C[C@H](F)C[C@H]2C(=O)Nc2cccc(Br)n2)c2ccc(-c3cnc(C)nc3)cc12  AUC(0-t) (Dutch Belted rabbit, plasma; 15 mg/kg single dose): 1.57 µg·h/mL
CC(C)=CCC[C@](C)(O[C@@H]1O[C@H](CO)[C@@H](O)[C@H](O)[C@H]1O)[C@H]1CC[C@]2(C)[C@@H]1[C@H](O)C[C@@H]1[C@@]3(C)CC[C@H](O[C@@H]4O[C@H](CO)[C@@H](O)[C@H](O)[C@H]4O[C@@H]4O[C@H](CO)[C@@H](O)[C@H](O)[C@H]4O)C(C)(C)[C@@H]3CC[C@]12C  AUC(0-t) (LC-MS/MS; healthy male volunteers, serum; 3 g red ginseng): 0.00693 ± 0.0114 µg·h/mL
Cc1nc2cccc(N)c2c(=O)n1C1CCC(=O)NC1=O (centres unmarked)  AUC(0-t) (healthy adults, plasma; 3 mg, fasted geometric mean alone): 0.675 µg·h/mL
Nc1nnc(CN[C@@H]2C[C@H]2c2ccc(OCc3ccccc3)cc2)o1  AUC(0-t) (healthy young adults; 1.0 mg/day, day 1, multiple dose, mean): 0.0951 µg·h/mL
Cc1[nH]c(/C=C2\C(=O)Nc3ccccc32)c(C)c1CCC(=O)O  AUC(0-t) (Japanese patients, plasma; 1200 mg/m^2, day 1): 76.6 ± 1 µg·h/mL
CC(C)=CCC[C@](C)(O[C@@H]1O[C@H](CO)[C@@H](O)[C@H](O)[C@H]1O)[C@H]1CC[C@]2(C)[C@@H]1[C@H](O)C[C@@H]1[C@@]3(C)CC[C@H](O[C@@H]4O[C@H](CO)[C@@H](O)[C@H](O)[C@H]4O)C(C)(C)[C@@H]3CC[C@]12C  AUC(0-t) (LC-MS/MS; healthy volunteers, serum; 3 g red ginseng): 0.00433 ± 0.00325 µg·h/mL
CCCN1CC(c2ccc(S(C)(=O)=O)cc2)=C(c2ccc(C)cc2)C1=O  AUC(0-t) (healthy Chinese, elderly, plasma; 100 mg): 0.183 µg·h/mL
O=C(c1cc(Cl)c(O)c(Cl)c1)N1CS(=O)(=O)c2ccccc21  AUC(0-t) (healthy Chinese adults, fasted, plasma; 1 mg single dose): 1.3 ± 0.268 µg·h/mL
Cc1nc(-c2ccc(OCC(C)C)c(C#N)c2)sc1C(=O)O  AUC(0-t) (healthy Chinese adult volunteers, plasma; 20 mg single dose, fed): 2.93 ± 0.752 µg·h/mL

Some of these lines once more:
CC(C)=CCC[C@](C)(O[C@@H]1O[C@H](CO)[C@@H](O)[C@H](O)[C@H]1O)[C@H]1CC[C@]2(C)[C@@H]1[C@H](O)C[C@@H]1[C@@]3(C)CC[C@H](O[C@@H]4O[C@H](CO)[C@@H](O)[C@H](O)[C@H]4O)C(C)(C)[C@@H]3CC[C@]12C  AUC(0-t) (LC-MS/MS; healthy volunteers, serum; 3 g red ginseng): 0.00433 ± 0.00325 µg·h/mL
